Results of several laboratories.
Values joined by “and” are separate records of one study, mostly repeats; a detail may differ. ± marks the error that the study gave.

SMILES | organism | test | system | setting | inhibition
CCN1CCC(CCNCc2cc3cc(Br)ccc3nc2SCc2ccccc2)CC1 | Acinetobacter baumannii | NADH-driven proton pumping, ACMA quenching | inverted membrane vesicles | 2 µg/mL | 18%
COC[C@H]1O[C@@H]2O[C@H]3[C@H](OC)[C@@H](OC)[C@@H](O[C@H]4[C@H](OC)[C@@H](OC)[C@@H](O[C@H]5[C@H](OC)[C@@H](OC)[C@@H](O[C@H]6[C@H](OC)[C@@H](OC)[C@@H](O[C@H]7[C@H](OC)[C@@H](OC)[C@@H](O[C@H]8[C@H](OC)[C@@H](OC)[C@@H](O[C@H]1[C@H](OC)[C@H]2OC)O[C@@H]8COC)O[C@@H]7COC)O[C@@H]6COC)O[C@@H]5COC)O[C@@H]4COC)O[C@@H]3COC | Escherichia coli | LuxR reporter, antagonist | DH5α sensor strain | 10 µM, added: OHHL 200 nM | -2 ± 2%
COc1cc2cc(CNCCN3CCN(C)CC3)c(SCc3ccccc3)nc2c(OC)c1OC | Acinetobacter baumannii | NADH-driven proton pumping, ACMA quenching | inverted membrane vesicles | 2 µg/mL | 1%
Cc1cc(OC(C)C)ccc1C(=O)C(C)(C)NC(=O)c1sccc1C | Botrytis cinerea | mycelial growth | B05.10 | 0.01 µg/mL | 69.4 ± 5%
O=c1[nH]c2ncsc2c(=O)n1O | Echinochloa crus-galli | glasshouse pot | – | 1500 g/ha, 21 days, post-emergence | 36.4%
COC[C@H]1O[C@@H]2O[C@@H]3[C@@H](OC)[C@@H](OC)[C@@H](O[C@@H]4[C@@H](OC)[C@@H](OC)[C@@H](O[C@@H]5[C@@H](OC)[C@@H](OC)[C@@H](O[C@@H]6[C@@H](OC)[C@@H](OC)[C@@H](O[C@@H]7[C@@H](OC)[C@@H](OC)[C@@H](O[C@@H]1[C@@H](OC)[C@H]2OC)O[C@@H]7COC)O[C@@H]6COC)O[C@@H]5COC)O[C@@H]4COC)O[C@@H]3COC | Escherichia coli | LuxR reporter, antagonist | DH5α sensor strain | 40 µM, added: OHHL 200 nM | 0 ± 1%
Cc1nc2[nH]c(=O)n(O)c(=O)c2s1 | Echinochloa crus-galli | glasshouse pot | – | 1500 g/ha, 21 days, post-emergence | 21.7%
CCc1nn(C)c2nc(-c3ccc(C(=O)O)cc3)nc(NCc3ccc(F)cc3)c12 | Cryptosporidium parvum | parasite growth, immunofluorescence imaging | HCT-8, Iowa | 6 µM | 85.1% and 88.6%
CCc1nc2[nH]c(=O)n(O)c(=O)c2s1 | Echinochloa crus-galli | glasshouse pot | – | 750 g/ha, 21 days, post-emergence | 0%
Brc1ccc2nc(SCc3ccccc3)c(CNCc3ccc(CN4CCCC4)cc3)cc2c1 | Acinetobacter baumannii | NADH-driven proton pumping, ACMA quenching | inverted membrane vesicles | 32 µg/mL | 81%

Repeated from above:
SMILES | organism | test | system | setting | inhibition
COC[C@H]1O[C@@H]2O[C@@H]3[C@@H](OC)[C@@H](OC)[C@@H](O[C@@H]4[C@@H](OC)[C@@H](OC)[C@@H](O[C@@H]5[C@@H](OC)[C@@H](OC)[C@@H](O[C@@H]6[C@@H](OC)[C@@H](OC)[C@@H](O[C@@H]7[C@@H](OC)[C@@H](OC)[C@@H](O[C@@H]1[C@@H](OC)[C@H]2OC)O[C@@H]7COC)O[C@@H]6COC)O[C@@H]5COC)O[C@@H]4COC)O[C@@H]3COC | Escherichia coli | LuxR reporter, antagonist | DH5α sensor strain | 40 µM, added: OHHL 200 nM | 0 ± 1%
